# Measurements gathered from unrelated publications.
# Compare with care: the assays were run in different laboratories.
# CTSL: Procathepsin L (CTSL, Homo sapiens, UniProt P07711)
# UniProt P07711, sequence (whole entry, looked up): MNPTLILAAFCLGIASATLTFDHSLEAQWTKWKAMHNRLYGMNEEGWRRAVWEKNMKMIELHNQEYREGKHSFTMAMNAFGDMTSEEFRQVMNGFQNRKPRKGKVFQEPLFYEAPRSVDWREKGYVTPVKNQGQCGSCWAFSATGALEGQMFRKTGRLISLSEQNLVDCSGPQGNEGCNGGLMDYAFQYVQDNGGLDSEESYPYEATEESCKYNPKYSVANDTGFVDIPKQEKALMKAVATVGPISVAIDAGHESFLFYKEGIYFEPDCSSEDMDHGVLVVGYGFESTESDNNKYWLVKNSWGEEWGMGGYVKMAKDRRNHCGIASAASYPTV
# DRD3: D(3) dopamine receptor (DRD3, Homo sapiens, UniProt P35462)
# UniProt P35462, sequence (whole entry, looked up): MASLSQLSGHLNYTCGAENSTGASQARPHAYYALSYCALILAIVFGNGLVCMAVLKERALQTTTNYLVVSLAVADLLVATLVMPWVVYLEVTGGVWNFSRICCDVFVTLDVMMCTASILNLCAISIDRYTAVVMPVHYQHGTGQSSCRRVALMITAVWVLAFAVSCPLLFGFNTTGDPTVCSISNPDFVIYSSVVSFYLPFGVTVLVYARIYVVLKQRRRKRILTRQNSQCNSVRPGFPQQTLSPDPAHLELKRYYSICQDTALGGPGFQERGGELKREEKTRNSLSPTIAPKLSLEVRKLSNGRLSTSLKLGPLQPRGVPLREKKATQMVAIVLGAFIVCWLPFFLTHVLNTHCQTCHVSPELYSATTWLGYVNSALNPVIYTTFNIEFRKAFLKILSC
# UniProt O15197, sequence (whole entry, looked up): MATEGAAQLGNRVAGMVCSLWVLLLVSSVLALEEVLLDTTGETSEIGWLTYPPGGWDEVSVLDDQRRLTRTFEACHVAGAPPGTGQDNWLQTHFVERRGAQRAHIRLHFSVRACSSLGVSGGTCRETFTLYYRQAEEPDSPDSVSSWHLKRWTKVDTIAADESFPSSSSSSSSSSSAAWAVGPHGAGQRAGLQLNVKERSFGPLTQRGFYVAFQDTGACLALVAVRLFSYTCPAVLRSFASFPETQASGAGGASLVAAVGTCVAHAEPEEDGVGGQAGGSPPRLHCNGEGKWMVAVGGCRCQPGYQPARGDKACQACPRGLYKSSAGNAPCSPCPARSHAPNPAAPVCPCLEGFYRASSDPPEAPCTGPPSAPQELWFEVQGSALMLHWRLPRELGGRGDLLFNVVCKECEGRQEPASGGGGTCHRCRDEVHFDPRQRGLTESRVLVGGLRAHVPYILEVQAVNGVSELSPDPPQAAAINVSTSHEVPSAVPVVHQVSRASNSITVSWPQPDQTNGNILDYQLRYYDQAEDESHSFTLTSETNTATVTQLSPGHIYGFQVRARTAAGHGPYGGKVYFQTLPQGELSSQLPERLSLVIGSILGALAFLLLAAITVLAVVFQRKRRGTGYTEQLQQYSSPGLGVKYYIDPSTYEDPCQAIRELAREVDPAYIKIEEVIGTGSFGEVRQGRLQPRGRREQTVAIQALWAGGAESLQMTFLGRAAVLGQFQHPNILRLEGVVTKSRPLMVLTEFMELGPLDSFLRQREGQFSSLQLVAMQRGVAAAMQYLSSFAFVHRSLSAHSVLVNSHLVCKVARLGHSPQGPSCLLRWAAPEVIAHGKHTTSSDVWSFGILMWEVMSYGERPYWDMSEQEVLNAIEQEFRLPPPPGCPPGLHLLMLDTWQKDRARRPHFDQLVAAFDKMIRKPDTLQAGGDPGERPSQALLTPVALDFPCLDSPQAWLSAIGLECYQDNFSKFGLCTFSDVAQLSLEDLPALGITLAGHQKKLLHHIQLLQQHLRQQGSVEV
# UniProt Q969F8, sequence (whole entry, unmodified, looked up): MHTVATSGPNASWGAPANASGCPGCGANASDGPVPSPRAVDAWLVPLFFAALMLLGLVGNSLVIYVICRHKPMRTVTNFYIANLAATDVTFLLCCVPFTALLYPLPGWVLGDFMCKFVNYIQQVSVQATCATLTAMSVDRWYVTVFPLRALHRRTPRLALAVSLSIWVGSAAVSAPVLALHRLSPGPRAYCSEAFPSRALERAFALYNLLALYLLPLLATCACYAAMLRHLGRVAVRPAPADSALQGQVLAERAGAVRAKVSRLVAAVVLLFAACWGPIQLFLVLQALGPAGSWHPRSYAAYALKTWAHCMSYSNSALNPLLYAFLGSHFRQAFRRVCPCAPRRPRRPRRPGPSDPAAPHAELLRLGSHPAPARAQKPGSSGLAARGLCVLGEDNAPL
# UniProt Q15418, sequence (whole entry, looked up): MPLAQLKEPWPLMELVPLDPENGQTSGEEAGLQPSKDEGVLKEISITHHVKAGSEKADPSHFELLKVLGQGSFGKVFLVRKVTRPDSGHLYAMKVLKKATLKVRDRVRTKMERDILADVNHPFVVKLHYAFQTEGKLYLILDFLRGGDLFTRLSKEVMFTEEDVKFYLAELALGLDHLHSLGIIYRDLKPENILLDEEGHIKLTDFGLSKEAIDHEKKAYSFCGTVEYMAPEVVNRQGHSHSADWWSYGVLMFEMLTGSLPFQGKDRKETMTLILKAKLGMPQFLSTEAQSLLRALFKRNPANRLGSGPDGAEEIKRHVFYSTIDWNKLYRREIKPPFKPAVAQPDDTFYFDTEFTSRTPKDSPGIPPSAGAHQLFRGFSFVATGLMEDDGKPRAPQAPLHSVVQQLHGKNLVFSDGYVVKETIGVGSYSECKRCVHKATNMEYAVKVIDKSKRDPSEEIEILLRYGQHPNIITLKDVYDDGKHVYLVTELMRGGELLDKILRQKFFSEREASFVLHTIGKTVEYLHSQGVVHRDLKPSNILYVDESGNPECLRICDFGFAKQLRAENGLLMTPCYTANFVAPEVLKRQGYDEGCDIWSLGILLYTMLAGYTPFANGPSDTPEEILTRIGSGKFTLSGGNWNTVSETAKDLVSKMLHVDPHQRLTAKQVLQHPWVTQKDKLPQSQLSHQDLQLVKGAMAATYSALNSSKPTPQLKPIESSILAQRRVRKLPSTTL
# UniProt Q16288, sequence (whole entry, looked up): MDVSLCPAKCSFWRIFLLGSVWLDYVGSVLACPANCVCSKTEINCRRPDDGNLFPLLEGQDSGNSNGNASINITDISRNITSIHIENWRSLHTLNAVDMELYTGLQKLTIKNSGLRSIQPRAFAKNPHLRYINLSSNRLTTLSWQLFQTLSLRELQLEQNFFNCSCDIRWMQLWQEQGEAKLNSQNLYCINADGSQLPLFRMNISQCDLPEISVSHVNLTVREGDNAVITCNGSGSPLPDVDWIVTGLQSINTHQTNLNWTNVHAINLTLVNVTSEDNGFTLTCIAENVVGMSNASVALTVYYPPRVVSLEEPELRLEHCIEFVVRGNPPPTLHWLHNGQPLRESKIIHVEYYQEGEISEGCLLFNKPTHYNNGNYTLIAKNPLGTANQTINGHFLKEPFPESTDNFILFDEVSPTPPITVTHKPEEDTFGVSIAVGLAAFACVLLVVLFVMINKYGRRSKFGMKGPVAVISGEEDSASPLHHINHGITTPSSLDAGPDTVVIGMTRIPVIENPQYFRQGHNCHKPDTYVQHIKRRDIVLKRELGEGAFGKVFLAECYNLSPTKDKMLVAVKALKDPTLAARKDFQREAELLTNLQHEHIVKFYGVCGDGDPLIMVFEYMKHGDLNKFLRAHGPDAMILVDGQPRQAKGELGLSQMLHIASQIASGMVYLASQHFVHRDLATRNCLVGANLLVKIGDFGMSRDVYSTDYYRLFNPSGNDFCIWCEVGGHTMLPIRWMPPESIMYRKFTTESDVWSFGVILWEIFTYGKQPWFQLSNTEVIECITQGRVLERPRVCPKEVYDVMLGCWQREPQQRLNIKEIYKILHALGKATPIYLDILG
# UniProt P49841, sequence (whole entry, looked up): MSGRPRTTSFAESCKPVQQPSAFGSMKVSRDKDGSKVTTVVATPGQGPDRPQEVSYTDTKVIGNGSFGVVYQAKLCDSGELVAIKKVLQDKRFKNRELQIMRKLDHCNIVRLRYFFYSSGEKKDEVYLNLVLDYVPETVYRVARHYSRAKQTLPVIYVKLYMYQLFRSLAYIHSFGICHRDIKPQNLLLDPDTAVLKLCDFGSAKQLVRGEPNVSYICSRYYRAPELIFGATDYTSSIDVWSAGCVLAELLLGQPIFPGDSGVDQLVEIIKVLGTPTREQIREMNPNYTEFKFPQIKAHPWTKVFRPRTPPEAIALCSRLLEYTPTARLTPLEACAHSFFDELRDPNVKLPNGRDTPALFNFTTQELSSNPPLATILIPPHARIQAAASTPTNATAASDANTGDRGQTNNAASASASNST
# UniProt P16591, sequence (whole entry, looked up): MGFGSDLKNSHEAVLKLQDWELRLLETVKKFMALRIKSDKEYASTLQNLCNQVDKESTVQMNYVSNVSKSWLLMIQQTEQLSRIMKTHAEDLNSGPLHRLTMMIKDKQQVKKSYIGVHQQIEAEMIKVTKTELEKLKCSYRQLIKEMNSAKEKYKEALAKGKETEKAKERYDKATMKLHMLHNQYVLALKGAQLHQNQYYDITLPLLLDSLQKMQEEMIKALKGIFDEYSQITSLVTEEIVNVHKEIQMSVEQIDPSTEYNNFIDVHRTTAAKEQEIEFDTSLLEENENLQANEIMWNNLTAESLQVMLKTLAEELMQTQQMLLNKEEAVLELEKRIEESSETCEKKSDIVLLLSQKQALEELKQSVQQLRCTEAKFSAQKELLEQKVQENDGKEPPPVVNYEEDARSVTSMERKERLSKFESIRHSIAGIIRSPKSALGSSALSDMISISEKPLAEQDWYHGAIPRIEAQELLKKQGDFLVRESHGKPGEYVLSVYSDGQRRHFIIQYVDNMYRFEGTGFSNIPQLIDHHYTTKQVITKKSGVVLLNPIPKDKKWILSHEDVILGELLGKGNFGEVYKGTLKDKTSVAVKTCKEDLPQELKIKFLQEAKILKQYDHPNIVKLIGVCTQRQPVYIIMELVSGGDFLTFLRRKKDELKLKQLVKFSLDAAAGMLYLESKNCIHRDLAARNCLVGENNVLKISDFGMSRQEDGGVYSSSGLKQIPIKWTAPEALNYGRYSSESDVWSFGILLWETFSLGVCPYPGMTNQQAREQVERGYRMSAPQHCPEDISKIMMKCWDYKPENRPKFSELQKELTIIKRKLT
Structure (SMILES),target or system,assay,system,setting,endpoint,result
C1=C/COCc2cc(ccc2OCCN2CCCC2)Nc2nccc(n2)-c2cccc(c2)COC/1,"Ephrin type-B receptor 6 (EPHB6, Homo sapiens, UniProt O15197)",binding,,0.1 µM,remaining binding,14%
O=C(/C=C/c1ccc(O)cc1)c1ccccc1,CTSL,"enzyme activity, inhibitor",,100 µM,remaining activity,48.5%
OC[C@@H](O)[C@H](O)[C@@H](O)CO,"Ubiquitin carboxyl-terminal hydrolase 51 (USP51, Homo sapiens, UniProt Q70EK9)","enzyme activity, inhibitor",,5 µM,inhibition,24%
COc1cc(-c2cncc3c2CN(C)Cc2cc(N4CCNCC4)ccc2-3)cc(OC)c1OC,"Tyrosine-protein kinase Fer (FER, Homo sapiens, UniProt P16591)","enzyme activity, inhibitor",,1 µM,remaining activity,111%
O=C1CC(c2ccc(O)cc2)Oc2cc(O)cc(O)c21 (stereo not drawn),CTSL,"enzyme activity, inhibitor",,100 µM,remaining activity,112%
Cc1cc(NS(=O)(=O)c2ccc(N=NN(O)c3ccccc3)cc2)no1,,ABTS scavenging,,240 µg/mL,inhibition,91.3%
O=C(O)c1cc(O)c2c(c1)C(=O)c1cccc(O)c1C2=O,CTSL,"enzyme activity, inhibitor",,100 µM,remaining activity,109%
Cc1[nH]c(C)c(S(=O)(=O)Nc2ccc(C(F)(F)F)c(Cl)c2)c1C(=O)N1C[C@@H](F)[C@@H](F)C1,DRD3,"β-arrestin recruitment, agonist",,90 min,Emax,104%
CC(=O)Nc1ccc(Oc2nnc(-c3ccc(Cl)cc3)c3ccccc23)cc1,MCF7,"cell growth or viability, MTT",,78 nM,cell death,20.6%
Nc1ncnc2occ(-c3ccc(NC(=O)Nc4cc(C(F)(F)F)ccc4F)cc3)c12,"Tyrosine-protein kinase ABL1, phosphorylated (ABL1, Homo sapiens, UniProt P00519, F317I)","cell-free assay, inhibitor",,20 µM,remaining signal,2.6%
CNc1ncc2c(/C=C/C(=O)N3CCC(OC)CC3)nn(Cc3cccc(C(F)(F)F)c3)c2n1,"Calcium/calmodulin-dependent protein kinase kinase 1 (CAMKK1, Homo sapiens, UniProt Q8N5S9)","enzyme activity, inhibitor, radiometric",,1 µM,remaining activity,107%
C=CC(=O)N1CCC(COCC(=O)N2CCN(c3nc(-c4cnc(N)nc4C(F)F)nc(N4CCOC[C@@H]4C)n3)CC2)CC1,"Ribosomal protein S6 kinase alpha-1, C-terminal kinase domain (RPS6KA1, Homo sapiens, UniProt Q15418)","binding, competition with immobilised ligand",,1 µM,remaining binding,96%
COc1cc(O)cc(O)c1C(=O)/C=C/c1ccc(O)cc1,CTSL,"enzyme activity, inhibitor",,100 µM,remaining activity,3.26%
Nc1ccn([C@@H]2O[C@H](CO)[C@@H](O)C2(F)F)c(=O)n1,MCF7,"cell growth or viability, MTT",,"5 µg/mL, 24 h",viability,36.8%
CC[C@H](C)[C@H](NC(=O)[C@H](CCC(N)=O)NC(=O)[C@H](CC(C)C)NC(=O)[C@H](CCSC)NC(=O)[C@H](CCCCN)NC(=O)[C@H](CO)NC(=O)[C@H](CO)NC(=O)[C@H](CCSC)NC(=O)[C@H](CC(C)C)NC(=O)[C@H](CC(N)=O)NC(=O)[C@@H](NC(=O)[C@@H](NC(=O)[C@H](CO)NC(=O)[C@H](CC(C)C)NC(=O)[C@H](CS)NC(=O)[C@H](CCCNC(=N)N)NC(=O)[C@H](CC(=O)O)NC(=O)[C@H](Cc1c[nH]c2ccccc12)NC(=O)[C@H](Cc1ccccc1)NC(=O)[C@H](C)NC(=O)[C@H](CCC(=O)O)NC(=O)[C@@H](N)CCCCN)C(C)C)[C@@H](C)CC)C(=O)N[C@@H](CC(N)=O)C(=O)N[C@@H](C)C(=O)O,"Glycogen synthase kinase-3 beta (GSK3B, Homo sapiens, UniProt P49841)","enzyme activity, inhibitor, radiometric",,"500 µM, 20 min",remaining activity,124%
CCCCC(=O)Nc1ccc(-c2ccc3ncn(CCC)c(=O)c3c2)cn1,"NT-3 growth factor receptor (NTRK3, Homo sapiens, UniProt Q16288)","binding, competition with immobilised ligand",,0.5 µM,remaining binding,100%
CC[C@H](C)[C@H](NC(=O)[C@H](CCC(N)=O)NC(=O)[C@H](CCCNC(=N)N)NC(=O)[C@H](CO)NC(=O)[C@H](Cc1c[nH]cn1)NC(=O)[C@@H]1CCCN1C(=O)[C@H](C)NC(=O)[C@H](CO)NC(=O)[C@H](CC(C)C)NC(=O)CNC(=O)[C@@H]1CCCN1C(=O)[C@H](CCC(N)=O)NC(=O)[C@H](CCC(N)=O)NC(=O)[C@H](CCCNC(=N)N)NC(=O)[C@H](CO)NC(=O)CNC(=O)[C@H](CO)NC(=O)[C@H](CO)NC(=O)[C@H](CCC(=O)O)NC(=O)[C@@H]1CCCN1C(=O)[C@@H]1CCCN1C(=O)[C@@H]1CCCN1C(=O)[C@H](CO)NC(=O)[C@H](CC(C)C)NC(=O)[C@H](CO)NC(=O)[C@@H](NC(=O)CN)[C@@H](C)O)C(=O)N1CCC[C@H]1C(=O)N[C@@H](C)C(=O)N1CCC[C@H]1C(=O)N[C@@H](CCC(N)=O)C(=O)NCC(=O)N[C@@H](C)C(=O)N[C@H](C(=O)N[C@@H](CC(C)C)C(=O)N[C@H](C(=O)N[C@@H](CCC(N)=O)C(=O)N[C@@H](CCCNC(=N)N)C(=O)N[C@@H](CCC(=O)O)C(=O)N[C@@H](CCCCN)C(=O)N[C@@H](CC(=O)O)C(=O)N[C@@H](CC(C)C)C(=O)N1CCC[C@H]1C(=O)N[C@@H](CC(N)=O)C(=O)N[C@@H](Cc1ccc(O)cc1)C(=O)N[C@@H](CC(N)=O)C(=O)N[C@@H](Cc1c[nH]c2ccccc12)C(=O)N[C@@H](CC(N)=O)C(=O)N[C@@H](CO)C(=O)N[C@@H](Cc1ccccc1)C(=O)NCC(=O)N[C@@H](CC(C)C)C(=O)N[C@@H](CCCNC(=N)N)C(=O)N[C@@H](Cc1ccccc1)C(N)=O)C(C)C)C(C)C,"KiSS-1 receptor (KISS1R, Homo sapiens, UniProt Q969F8, Y313A)","inositol phosphate, agonist",HEK293,,Emax,51.6%
Cc1[nH]c(C)c(C(=O)N2CCC(F)(F)C2)c1C(=O)Nc1ccc(C(F)(F)F)c(Cl)c1,DRD3,"β-arrestin recruitment, agonist",,90 min,Emax,82%
Cc1cc([C@@H](C)Nc2ccccc2C(=O)O)c2nc(N3CCC(F)(F)CC3)c(C#N)c(=O)n2c1,"Serine/threonine-protein kinase RIO2 (RIOK2, Homo sapiens, UniProt Q9BVS4)","binding, competition with immobilised ligand",,10 µM,remaining binding,80%
O=C(Nc1ccccc1)Nc1ccc(Oc2nnc(-c3ccc(Cl)cc3)c3ccccc23)cc1,MCF7,"cell growth or viability, MTT",,"0.625 µM, 24 h",viability,4.6%
COc1cc(O)c(CC=C(C)C)c(O)c1C(=O)C=Cc1ccc(O)cc1,CTSL,"enzyme activity, inhibitor",,100 µM,remaining activity,6.44%
O=c1nc(N2CCN(CC3CCCCC3)CC2)sc2c([N+](=O)[O-])cc(C(F)(F)F)cc12,,,"CD-1 mouse, plasma","intravenous, 10 mg/kg, 24 h",concentration,0.74 ng/mL
CC(=O)NC(C=O)C(O)C(O)C(O)CO (stereo not drawn),CTSL,"enzyme activity, inhibitor",,100 µM,remaining activity,60.1%
CCN(O)N=Nc1ccc(S(=O)(=O)Nc2cc(C)on2)cc1,,ABTS scavenging,,240 µg/mL,inhibition,31.5%

# Excerpt of the above:
Structure (SMILES),target or system,assay,system,setting,endpoint,result
COc1cc(-c2cncc3c2CN(C)Cc2cc(N4CCNCC4)ccc2-3)cc(OC)c1OC,"Tyrosine-protein kinase Fer (FER, Homo sapiens, UniProt P16591)","enzyme activity, inhibitor",,1 µM,remaining activity,111%
